Assay results collected from several papers.
Numbers after ± are the reported error.
VHL with elongin B/C: von Hippel-Lindau disease tumor suppressor, with elongin B/C (VHL, Homo sapiens, UniProt P40337)
IFIT1: Antiviral innate immune response effector IFIT1 (IFIT1, Homo sapiens, UniProt P09914)
Chain of UniProt P09914 (whole entry, looked up): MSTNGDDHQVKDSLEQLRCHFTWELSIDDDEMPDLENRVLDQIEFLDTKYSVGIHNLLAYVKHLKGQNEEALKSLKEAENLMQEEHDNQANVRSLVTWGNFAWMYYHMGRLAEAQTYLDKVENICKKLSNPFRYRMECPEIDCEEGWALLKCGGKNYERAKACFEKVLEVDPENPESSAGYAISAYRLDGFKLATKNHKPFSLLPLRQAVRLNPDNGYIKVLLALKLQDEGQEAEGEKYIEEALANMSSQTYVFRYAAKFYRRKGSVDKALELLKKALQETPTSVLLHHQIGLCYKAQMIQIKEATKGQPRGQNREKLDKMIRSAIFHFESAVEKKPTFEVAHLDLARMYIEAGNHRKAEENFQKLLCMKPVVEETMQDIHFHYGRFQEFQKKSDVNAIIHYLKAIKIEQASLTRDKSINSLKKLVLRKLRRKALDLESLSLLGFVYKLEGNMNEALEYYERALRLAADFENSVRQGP
Chain of UniProt P20273 (whole entry, looked up): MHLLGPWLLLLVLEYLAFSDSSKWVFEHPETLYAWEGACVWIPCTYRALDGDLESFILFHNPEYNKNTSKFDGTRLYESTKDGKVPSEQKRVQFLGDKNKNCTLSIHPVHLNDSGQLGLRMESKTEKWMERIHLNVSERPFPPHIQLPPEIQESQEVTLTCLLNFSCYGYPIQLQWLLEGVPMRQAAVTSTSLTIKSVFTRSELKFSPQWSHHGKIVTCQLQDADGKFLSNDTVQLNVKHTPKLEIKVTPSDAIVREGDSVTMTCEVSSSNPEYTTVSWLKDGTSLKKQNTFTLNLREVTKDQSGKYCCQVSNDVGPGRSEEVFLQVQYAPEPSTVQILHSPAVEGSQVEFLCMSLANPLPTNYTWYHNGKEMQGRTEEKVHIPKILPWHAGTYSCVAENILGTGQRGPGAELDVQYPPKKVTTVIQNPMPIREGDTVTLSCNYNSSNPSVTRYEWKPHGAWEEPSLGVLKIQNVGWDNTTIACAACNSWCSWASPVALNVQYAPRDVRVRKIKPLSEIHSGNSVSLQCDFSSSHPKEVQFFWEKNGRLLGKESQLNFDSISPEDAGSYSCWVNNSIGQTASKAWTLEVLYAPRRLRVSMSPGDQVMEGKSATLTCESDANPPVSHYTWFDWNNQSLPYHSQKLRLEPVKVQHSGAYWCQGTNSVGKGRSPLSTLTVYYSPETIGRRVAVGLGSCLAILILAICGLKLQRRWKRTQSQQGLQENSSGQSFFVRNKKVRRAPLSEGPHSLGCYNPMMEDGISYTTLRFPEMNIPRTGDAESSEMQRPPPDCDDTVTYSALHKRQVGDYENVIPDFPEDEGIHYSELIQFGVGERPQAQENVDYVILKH
Chain of UniProt Q2FZQ3 (whole entry, looked up): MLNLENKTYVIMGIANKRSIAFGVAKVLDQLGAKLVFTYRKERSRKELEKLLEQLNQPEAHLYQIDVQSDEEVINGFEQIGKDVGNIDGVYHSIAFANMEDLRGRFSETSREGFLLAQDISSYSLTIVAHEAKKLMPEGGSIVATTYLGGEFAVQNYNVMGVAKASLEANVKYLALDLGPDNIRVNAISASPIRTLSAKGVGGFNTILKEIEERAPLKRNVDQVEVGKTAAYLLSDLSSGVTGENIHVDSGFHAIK
Chain of UniProt Q96CN7 (whole entry, looked up): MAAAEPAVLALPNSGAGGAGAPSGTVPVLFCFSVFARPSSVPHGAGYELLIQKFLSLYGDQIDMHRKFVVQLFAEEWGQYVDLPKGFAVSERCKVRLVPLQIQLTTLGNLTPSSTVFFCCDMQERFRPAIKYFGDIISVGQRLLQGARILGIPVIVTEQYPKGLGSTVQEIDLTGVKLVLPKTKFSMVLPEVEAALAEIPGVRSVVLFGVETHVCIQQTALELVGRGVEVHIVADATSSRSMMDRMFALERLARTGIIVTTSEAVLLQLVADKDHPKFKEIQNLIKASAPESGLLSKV
Chain of UniProt P63073 (28-217, looked up): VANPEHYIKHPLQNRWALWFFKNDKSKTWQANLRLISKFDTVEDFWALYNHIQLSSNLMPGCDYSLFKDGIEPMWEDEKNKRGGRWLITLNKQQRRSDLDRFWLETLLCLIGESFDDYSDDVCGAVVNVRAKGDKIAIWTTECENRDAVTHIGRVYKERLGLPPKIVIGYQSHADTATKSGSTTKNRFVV
Chain of UniProt A4D1P6 (whole entry, looked up): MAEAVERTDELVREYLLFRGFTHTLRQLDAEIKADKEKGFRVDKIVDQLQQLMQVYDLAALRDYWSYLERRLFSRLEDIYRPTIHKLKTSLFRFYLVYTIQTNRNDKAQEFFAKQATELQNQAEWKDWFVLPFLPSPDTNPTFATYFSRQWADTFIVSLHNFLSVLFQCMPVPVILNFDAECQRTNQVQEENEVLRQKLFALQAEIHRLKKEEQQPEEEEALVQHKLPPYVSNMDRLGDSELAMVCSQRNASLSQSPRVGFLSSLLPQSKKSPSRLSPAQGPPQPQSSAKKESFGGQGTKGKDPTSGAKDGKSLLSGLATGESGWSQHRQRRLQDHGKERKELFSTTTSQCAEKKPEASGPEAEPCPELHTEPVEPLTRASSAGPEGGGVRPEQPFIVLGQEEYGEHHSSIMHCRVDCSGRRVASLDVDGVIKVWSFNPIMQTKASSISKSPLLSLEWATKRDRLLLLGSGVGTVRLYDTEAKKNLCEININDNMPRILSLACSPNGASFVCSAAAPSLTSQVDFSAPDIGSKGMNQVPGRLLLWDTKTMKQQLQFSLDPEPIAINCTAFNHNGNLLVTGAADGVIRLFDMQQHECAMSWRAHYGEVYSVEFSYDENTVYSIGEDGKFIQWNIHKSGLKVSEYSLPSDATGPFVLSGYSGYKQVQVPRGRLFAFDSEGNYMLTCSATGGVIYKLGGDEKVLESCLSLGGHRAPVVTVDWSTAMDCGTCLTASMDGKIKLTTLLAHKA
Chain of UniProt P02754 (whole entry, unmodified, looked up): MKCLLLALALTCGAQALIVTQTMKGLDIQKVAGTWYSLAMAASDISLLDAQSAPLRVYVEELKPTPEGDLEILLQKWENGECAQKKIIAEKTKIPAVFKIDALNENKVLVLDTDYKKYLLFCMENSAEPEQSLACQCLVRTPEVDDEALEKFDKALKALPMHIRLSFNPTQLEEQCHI
Chain of UniProt Q9SZU7 (whole entry, unmodified, looked up): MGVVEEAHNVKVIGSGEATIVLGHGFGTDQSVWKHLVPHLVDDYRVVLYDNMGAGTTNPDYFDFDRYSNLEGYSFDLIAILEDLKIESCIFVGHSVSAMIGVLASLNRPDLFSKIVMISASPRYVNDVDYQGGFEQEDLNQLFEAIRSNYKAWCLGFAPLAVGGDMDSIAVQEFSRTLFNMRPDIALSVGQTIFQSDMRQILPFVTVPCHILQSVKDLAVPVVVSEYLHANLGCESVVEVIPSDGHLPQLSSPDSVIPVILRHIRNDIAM
Chain of UniProt Q15059 (whole entry, looked up): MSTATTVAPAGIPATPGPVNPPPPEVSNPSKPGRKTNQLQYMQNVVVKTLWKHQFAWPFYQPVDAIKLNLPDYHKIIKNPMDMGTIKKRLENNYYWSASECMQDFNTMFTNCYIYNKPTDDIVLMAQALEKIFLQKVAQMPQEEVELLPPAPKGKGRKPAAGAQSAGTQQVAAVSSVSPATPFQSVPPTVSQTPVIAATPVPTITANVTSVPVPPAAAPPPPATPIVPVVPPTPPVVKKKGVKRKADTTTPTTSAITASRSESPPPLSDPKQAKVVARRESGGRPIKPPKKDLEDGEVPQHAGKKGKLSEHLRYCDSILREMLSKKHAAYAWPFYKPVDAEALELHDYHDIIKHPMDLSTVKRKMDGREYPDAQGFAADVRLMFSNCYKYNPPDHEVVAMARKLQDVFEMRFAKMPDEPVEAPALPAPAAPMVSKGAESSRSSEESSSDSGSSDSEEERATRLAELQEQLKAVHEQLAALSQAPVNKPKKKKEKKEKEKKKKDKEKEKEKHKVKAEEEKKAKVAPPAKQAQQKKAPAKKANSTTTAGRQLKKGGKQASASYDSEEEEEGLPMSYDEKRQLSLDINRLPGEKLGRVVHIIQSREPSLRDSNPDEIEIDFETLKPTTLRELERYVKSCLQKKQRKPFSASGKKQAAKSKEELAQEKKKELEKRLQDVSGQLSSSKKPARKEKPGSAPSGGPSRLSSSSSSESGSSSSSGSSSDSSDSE
Chain of UniProt Q9SCZ4 (whole entry, unmodified, looked up): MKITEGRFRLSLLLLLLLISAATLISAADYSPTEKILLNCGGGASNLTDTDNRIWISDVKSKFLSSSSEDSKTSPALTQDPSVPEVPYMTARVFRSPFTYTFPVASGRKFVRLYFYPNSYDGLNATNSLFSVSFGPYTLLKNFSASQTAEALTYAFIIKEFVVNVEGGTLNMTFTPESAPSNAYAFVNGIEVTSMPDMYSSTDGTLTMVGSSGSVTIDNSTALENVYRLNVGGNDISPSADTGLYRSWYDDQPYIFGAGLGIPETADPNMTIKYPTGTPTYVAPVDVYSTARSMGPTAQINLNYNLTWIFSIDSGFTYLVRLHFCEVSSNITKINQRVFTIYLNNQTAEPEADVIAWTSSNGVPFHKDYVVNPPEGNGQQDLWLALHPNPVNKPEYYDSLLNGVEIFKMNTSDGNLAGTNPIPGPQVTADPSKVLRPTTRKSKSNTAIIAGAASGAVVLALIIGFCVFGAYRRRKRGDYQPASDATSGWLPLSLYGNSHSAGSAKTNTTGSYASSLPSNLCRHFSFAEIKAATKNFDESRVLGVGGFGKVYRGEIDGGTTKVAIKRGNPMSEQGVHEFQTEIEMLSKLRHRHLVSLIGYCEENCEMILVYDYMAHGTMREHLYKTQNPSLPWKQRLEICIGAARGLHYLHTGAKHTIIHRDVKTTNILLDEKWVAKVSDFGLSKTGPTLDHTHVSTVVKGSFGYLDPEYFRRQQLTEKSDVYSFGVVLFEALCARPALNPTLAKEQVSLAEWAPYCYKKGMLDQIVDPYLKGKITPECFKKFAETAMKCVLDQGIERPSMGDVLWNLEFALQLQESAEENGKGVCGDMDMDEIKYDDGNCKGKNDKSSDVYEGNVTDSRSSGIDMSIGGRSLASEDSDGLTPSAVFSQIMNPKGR

Compound | target | test | system | setting | Kd
BP(=O)(OP(=O)([O-])OC[C@H]1O[C@@H](n2c[n+](C)c3c(=O)[nH]c(N)nc32)[C@H](O)[C@@H]1O)OP(=O)([O-])OC[C@H]1O[C@@H](n2c[n+](C)c3c(=O)[nH]c(N)nc32)[C@H](O)[C@@H]1O | Eukaryotic translation initiation factor 4E, residues 28-217 (Eif4e, Mus musculus, UniProt P63073) | cap binding, fluorescence quenching titration |  |  | 0.09 µM
CC(=O)c1cnc2ccc(-c3cc(Cl)c(O)c(Cl)c3)nc2c1N[C@H]1CC[C@H](CN(C)C)CC1 | Receptor-like protein kinase FERONIA (FER, Arabidopsis thaliana, UniProt Q9SCZ4, Y612A) | binding, SPR |  | mutant protein | > 100 µM
Cc1ncsc1-c1ccc(CNC(=O)[C@@H]2C[C@@H](O)CN2C(=O)[C@@H](NC(=O)C2(F)CC2)C(C)(C)C)c(OCCC2CCN(c3nc(N(C)CCNC(=O)C(C)C)nc(N4CCn5nnc(CO)c5C4)n3)CC2)c1 | VHL with elongin B/C | binary binding, SPR |  |  | 0.0092 µM
COC(=O)CCCNC(=O)c1cc(S(N)(=O)=O)c(Cl)cc1NC1CCCCC1 | CA1 (Homo sapiens, UniProt P00915) |  |  | pH 7 | 8.3 µM
C=CC(=O)N1CC2(CCN(c3nc(OC4CCN(CCCOC)CC4)nc4c(OCC(F)(F)F)c(-c5c(C)ccc6[nH]ncc56)c(C5CC5)cc34)CC2)C1 | GTPase KRas, GDP-bound (KRAS, Homo sapiens, UniProt P01116, G12D) | binding, surface plasmon resonance |  |  | 20.4 ± 0.68 µM
COc1ccc(Cn2ccc3ccc(C(=O)NO)cc32)cc1 | Isochorismatase domain-containing protein 1 (Homo sapiens, UniProt Q96CN7) | inhibitor, competition pulldown | SW620 and MV4-11 lysate | 1 h | > 30.2 µM
O=C(O)[C@@H]1O[C@@H](O[C@H]2[C@H](O)[C@H](O)[C@H](O[C@H]3[C@H](O)[C@H](O)[C@H](O[C@H]4[C@H](O)[C@H](O)[C@H](O)O[C@H]4C(=O)O)O[C@H]3C(=O)O)O[C@H]2C(=O)O)[C@@H](O)[C@@H](O)[C@@H]1O | Beta-lactoglobulin (LGB, Bos taurus, UniProt P02754, A134V/G80D) | isothermal titration calorimetry |  | pH 4.00, 37 °C, 50 mM KH2PO4 | 198 µM
c1ccc(COc2[nH]cnc3ncnc2-3)cc1 | Inositol-tetrakisphosphate 1-kinase (Homo sapiens, UniProt Q13572) | binding |  |  | 2.6 ± 1 µM
CCc1nc2cc3ccccc3cc2cc1C(=O)N1CCC[C@H]1C(=O)N[C@@H](C/C=C\C[C@H](NC(=O)[C@@H]1CCCN1C(=O)c1cc2cc3ccccc3cc2nc1CC)C(=O)N[C@@H](CCCCN)C(=O)NCCCN)C(=O)N[C@@H](CCCCN)C(=O)NCCCN | CUG–CAG duplex RNA | SPR |  |  | 0.056 µM
Cn1ncc2cc(-c3cncc(Cl)c3N3CCC4(CCNC4=O)CC3)ccc21 | Delta(3,5)-Delta(2,4)-dienoyl-CoA isomerase, mitochondrial (Homo sapiens, UniProt Q13011) | cell-free assay |  | lysate | 14.8 µM
CCc1nc2cc3ccccc3cc2cc1C(=O)N[C@@H](CCCCN)C(=O)N[C@@H](C/C=C/C[C@H](NC(=O)[C@H](CCCCN)NC(=O)c1cc2cc3ccccc3cc2nc1CC)C(=O)N1CCC[C@H]1C(=O)NCCCN)C(=O)N1CCC[C@H]1C(=O)NCCCN | CUG–CAG duplex RNA | SPR |  |  | 0.0706 µM
CC(=O)NCC1CCCCN1c1nc(N(C)CCc2ncc(C)s2)nc(N2CC3C(CCOc4cc(-c5scnc5C)ccc4CNC(=O)[C@@H]4C[C@@H](O)CN4C(=O)[C@@H](NC(=O)C4(F)CC4)C(C)(C)C)C3C2)n1 (stereo partly shown) | VHL with elongin B/C | binary binding, SPR |  |  | 0.249 µM
CCN(CC)Cc1cn(Cc2ccc(C(=O)N[C@@H]3CCc4c(C#N)cccc43)cc2)nn1 | WD repeat-containing protein 91 (Homo sapiens, UniProt A4D1P6) | binding, SPR |  |  | 2.7 µM
CC(=O)N1c2ccc(-c3ccc(CNC(=O)c4cn5cc(-c6cnc(N)nc6)nc(N6CCOCC6)c5n4)cc3)cc2CC[C@@H]1C | Bromodomain-containing protein 3, BD2 (BRD3, Homo sapiens, UniProt Q15059) | binding, competition with immobilised ligand |  |  | 0.0006 µM
CNC(=O)c1cc(F)c(-c2nc3cc(C)ccn3c2C[C@H]2CN(C(=O)OC)CCO2)c(F)c1 | P2RX3 (Canis lupus, UniProt A0A8I3S575) | binding, ITC |  |  | 0.1 µM
Cc1cccc2c1N(C(=O)n1ccnn1)CC2 | KAI2 (Arabidopsis thaliana, UniProt Q9SZU7, A219S) | ITC |  | A219S mutant, mean | 14 µM
Nc1nc2c(ncn2[C@@H]2O[C@H](COP(=O)(O)O[C@H]3[C@@H](O)[C@H](n4ccc(=O)[nH]c4=O)O[C@@H]3COP(=O)(O)OP(=O)(O)OP(=O)(O)O)[C@@H](O)[C@H]2O)c(=O)[nH]1 | IFIT1 | binding, microscale thermophoresis |  | pH 7.5 | 26000 µM
Cc1c2c(nn1C)CSCc1cc(n(C)n1)CSc1cc(c3ccccc3c1)OCCCc1c(C(=O)O)n(C)c3c-2c(Cl)ccc13 | Enoyl-[acyl-carrier-protein] reductase [NADPH] FabI (Staphylococcus aureus, UniProt Q2FZQ3) | binding, BLI |  |  | 10900 µM
C[n+]1cn([C@@H]2O[C@H](COP(=O)(O)OP(=O)([O-])OP(=O)(O)OC[C@H]3O[C@@H](n4cnc5c(=O)[nH]c(N)nc54)[C@H](O)[C@@H]3OP(=O)(O)OC[C@H]3O[C@@H](n4cnc5c(=O)[nH]c(N)nc54)[C@H](O)[C@@H]3O)[C@@H](O)[C@H]2O)c2nc(N)nc(O)c21 | IFIT1 | binding, microscale thermophoresis |  | pH 7.5 | 23 µM
Cc1c2ccnc(C(=O)N[C@H](C)CN(C)C)c2cc2c3cc(OCCCN4CCN(C)CC4)ccc3n(C)c12 | r(G4C2)8 G-quadruplex RNA | binding, microscale thermophoresis |  | with: K+ | 1.13 ± 0.46 µM
CO[C@@H]1[C@H](OP(=O)(O)OC[C@H]2O[C@@H](n3cnc4c(=O)[nH]c(N)nc43)[C@H](O)[C@@H]2O)[C@@H](COP(=O)(O)OP(=O)([O-])OP(=O)(O)OC[C@H]2O[C@@H](n3c[n+](C)c4c(O)nc(N)nc43)[C@H](O)[C@@H]2O)O[C@H]1n1cnc2c(N)ncnc21 | IFIT1 | microscale thermophoresis |  | pH 7.5, with: structured cap III RNA, 70 nt | 0.52 µM
Cc1ncc(CNc2nc(N3CC(CCOc4cc(-c5scnc5C)ccc4CNC(=O)[C@@H]4C[C@@H](O)CN4C(=O)[C@@H](NC(=O)C4(F)CC4)C(C)(C)C)C3)nc(N3CCC[C@H]3Cn3ccnn3)n2)c(N)n1 | VHL with elongin B/C | binary binding, SPR |  |  | 0.011 µM
C[n+]1cn([C@@H]2O[C@H](COP(=O)(O)OP(=O)([O-])OP(=O)(O)OC[C@H]3O[C@@H](n4cnc5c(N)ncnc54)[C@H](O)[C@@H]3OP(=O)(O)OC[C@H]3O[C@@H](n4cnc5c(=O)[nH]c(N)nc54)[C@H](O)[C@@H]3O)[C@@H](O)[C@H]2O)c2nc(N)nc(O)c21 | IFIT1 | microscale thermophoresis |  | pH 7.5, with: structured cap III RNA, 70 nt | 0.1 µM
Nc1nnc(-c2ccccc2O)cc1N1CCNCC1 | VHL (Homo sapiens, UniProt P40337) | binding, SPR |  |  | > 10 µM
C[n+]1cn([C@@H]2O[C@H](COP(=O)(O)OP(=O)([O-])OP(=O)(O)OC[C@H]3O[C@@H](n4ccc(=O)[nH]c4=O)[C@H](O)[C@@H]3OP(=O)(O)OC[C@H]3O[C@@H](n4cnc5c(=O)[nH]c(N)nc54)[C@H](O)[C@@H]3O)[C@@H](O)[C@H]2O)c2nc(N)nc(O)c21 | IFIT1 | binding, microscale thermophoresis |  | pH 7.5 | 390 µM
CC(=O)N[C@H]1[C@H]([C@H](O)[C@H](O)CNC(=O)c2ccc(-c3ccccc3)cc2)O[C@@](OCc2cn(CC(O)Cn3c([N+](=O)[O-])cnc3C)nn2)(C(=O)O)C[C@@H]1O (stereo partly shown) | CD22 (Homo sapiens, UniProt P20273) | binding, ITC |  |  | 7.55 µM
CNc1ncnc2c1ncn2[C@@H]1O[C@H](COP(=O)(O)OP(=O)([O-])OP(=O)(O)OC[C@H]2O[C@@H](n3c[n+](C)c4c(O)nc(N)nc43)[C@H](O)[C@@H]2O)[C@@H](OP(=O)(O)OC[C@H]2O[C@@H](n3cnc4c(=O)[nH]c(N)nc43)[C@H](O)[C@@H]2O)[C@H]1O | IFIT1 | binding, microscale thermophoresis |  | pH 7.5, 70 nt capped RNA | 0.23 µM
CC(C)C[C@@H]1NC(=O)[C@H](CC(C)C)NC(=O)[C@H](CC(N)=O)NC(=O)[C@@H]2CCCN2C(=O)[C@H](CC(C)C)NC(=O)[C@H](CC(C)C)NC(=O)[C@H](CC(C)C)NC(=O)[C@@H](NC(=O)[C@H](CO)NC(=O)[C@H](CC(N)=O)NC(=O)[C@@H](N)C(C)C)CSSC[C@@H](C(=O)NCC(=O)N[C@@H](CC(=O)O)C(=O)N[C@@H](CC(=O)O)C(=O)N[C@@H](CCCCNC(=O)CCCC[C@@H]2SC[C@@H]3NC(=O)N[C@@H]32)C(=O)NCCCCCC(=O)NCCCCCC(=O)NCCCCCC(=O)NCCCCCC(=O)NCCCCCC(=O)N[C@@H](CCCCNC(=O)CCCCc2cn(CCCC[C@H](NC(=O)N[C@@H](CCC(=O)O)C(=O)O)C(=O)O)nn2)C(=O)NCC(N)=O)NC(=O)CNC1=O | human FcγRI | bead phagocytosis, ternary complex model fit |  | with: PSMA 80 pM, FcγRI 800 pM | 0.3 µM

Excerpt of the above:
Compound | target | test | system | setting | Kd
Cc1c2c(nn1C)CSCc1cc(n(C)n1)CSc1cc(c3ccccc3c1)OCCCc1c(C(=O)O)n(C)c3c-2c(Cl)ccc13 | Enoyl-[acyl-carrier-protein] reductase [NADPH] FabI (Staphylococcus aureus, UniProt Q2FZQ3) | binding, BLI |  |  | 10900 µM
CC(=O)N[C@H]1[C@H]([C@H](O)[C@H](O)CNC(=O)c2ccc(-c3ccccc3)cc2)O[C@@](OCc2cn(CC(O)Cn3c([N+](=O)[O-])cnc3C)nn2)(C(=O)O)C[C@@H]1O (stereo partly shown) | CD22 (Homo sapiens, UniProt P20273) | binding, ITC |  |  | 7.55 µM
COC(=O)CCCNC(=O)c1cc(S(N)(=O)=O)c(Cl)cc1NC1CCCCC1 | CA1 (Homo sapiens, UniProt P00915) |  |  | pH 7 | 8.3 µM
